Measured values gathered from unrelated publications.
Parts stem from different laboratories: compare values within a part only. Changes are numbered by the printed parent chain.

Sample 1
Target: RNA binding protein fox-1 homolog 2, RRM domain, GST-SBP tag (RBFOX2, Homo sapiens, UniProt O43251-10, residues 100-194)
Method: RNA Bind-n-Seq
Form: RNA
Matrix: in vitro
Tested at: 365 nM
Notes: natural RNA segment, single round, ends assumed
Baseline: no-protein control
Direction: higher = stronger binding
Shared flanks, not repeated: GGGAGUUCUACAGUCCGACGAUC … UGGAAUUCUCGGGUGCCAA
Target sequence (chain): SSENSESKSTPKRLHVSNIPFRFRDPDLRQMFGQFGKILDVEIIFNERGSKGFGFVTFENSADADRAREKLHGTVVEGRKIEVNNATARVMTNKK
Oligonucleotide | RBNS enrichment (R)
AAAAGCAAGGGAAGUGGCUACUUUGGAAUGCUCUUUAUAAUUUUUAUAAGCUGAAUUUUAUAUGUUACUGUAUAUAGUAUUUAUUUGAUUUUACUUACGCUACCUCUCCA | 0.694
CCCCCGGGAGGGCUGCCGCACUGCCAAAGAGUCUCCCUCCUCCUGGGGAAGGGGCUGCCAACGAACCAGACUCAGUGACCACGUCAUGACAGAACAGCACAUCCUGGCCA | 0.381
AAACUUGCCCUUUCUGAAGGCAAGCCUAGAAUUGGGUCUUUUGUUGUCAUUGUUCCAAAUUUCCAGAAUAGAAUAUAGGACCAGUUUAGAUCCUGUAGUAAACAUGUCCC | 0.3
UAAGUAGAUAAGCAGACGAUAGUUAUCUGUUCUUUUGACUUAAUCUCAUUUGGUUUGAUUUUCCCUCUACUAAGGCUUUCCUACCUUCUUCAGGCUGCCUAAGACAUGUA | 0.28
ACCUUGGAAAGUUCACUAAUACUUCGCUCCAAGGCGUCUGUAAAAGAAGAUAUCUUUAUUGGAGCAAUGUUCAUGUGACUGGGAAUGACAGAAGAAUGGGAGAUGAGUAG | 3.16
GGAAACUGGGGCAGCCAGUGCUUAUCUGCACACUCCAGAUGAGAAGGCAUACAGGAGGGGGCCCACUGAUCUUUGUCAGAUGGCCUGCAGGCACUCUGCAGAGGAUGGAA | 3.67
UUACCCCAGUACUGUUAGAAACAUUUGUACUAGGUUAUAAGAUCUUUCUGUGACAGGUAACAAAUUUGGGGAAGACAGCACAAUCUUCUUGAAUGUAGCUCUUGGGAAUG | 0.794
AUGGUGAGGGGUUUACAGGGUAAGGGGACAAGACUACACACACUAGCGUGGUAGGACUAGAUUUUUGUUUUCCCCACCAAGUAAAUGUUCACCUGUGACCUUGGGCUGGG | 0.809
AUAGCCUAUUUUGAACCAUUUGAACUGUAGAAAAAUGGCAAAUAUAUACUUACAUGUAUGUUCUUAAGAGAAAAACUAGGUACCCAUAGUGCACGUUUGAUUAGGAGUGU | 14
UGUGCUCUCCUGUCACAAAUGCUGCACUGUUGAUUCUUUCAAAACAAAACGAAACAAACCUCUCCAGUCUCUAAUUUAUGCCUAUGCAAAAAAUAAAGGAUGCCCAGGAU | 0.64
AGCUCCUUUAGAGAUUGUCAAGUCCUGAGCGAUGAGCUGCCCUUAAUCCUCAGAAGCCUUACAAAAAUUGAGAUGUACCAUUUCUACCCUUUGAGAAAAAAGAAAUAGAA | 0.639
UAAGAGGUCUUAGAAACAUAGCCUGUAAAUGUGUCUUGUAACUGGCACACUAAAAAAGAUCCUAGUUGAGCAUCUCUCUUGGUGAGGAAGCGAUGUGUGUGCGGUUCAGG | 0.931

Sample 2
Target: Centromere-binding protein 1, full length, N-terminal tag (CBF1, Saccharomyces cerevisiae, UniProt P17106, residues 1-351)
Chain of UniProt P17106 (whole entry, looked up): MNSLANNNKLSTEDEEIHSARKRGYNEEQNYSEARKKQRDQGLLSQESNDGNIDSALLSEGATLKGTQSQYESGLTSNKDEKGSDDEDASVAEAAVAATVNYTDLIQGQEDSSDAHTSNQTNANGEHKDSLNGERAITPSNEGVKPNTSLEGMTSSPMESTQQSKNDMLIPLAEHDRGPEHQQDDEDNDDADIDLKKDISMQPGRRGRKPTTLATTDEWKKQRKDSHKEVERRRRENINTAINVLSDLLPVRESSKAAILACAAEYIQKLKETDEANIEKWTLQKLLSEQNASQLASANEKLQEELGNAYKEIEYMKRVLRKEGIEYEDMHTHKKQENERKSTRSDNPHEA
Method: protein-binding microarray
Form: double-stranded DNA, one strand shown
Matrix: in vitro
Tested at: 0.8 µM
Notes: whole 60-bp probe, no competitor
Direction: higher = stronger binding
Shared flanks, not repeated: … GTCTTGATTCGCTTGACGCTGCTG
Oligonucleotide | fluorescence intensity [a.u.]
TGTACGAAGCTATTAGTCGTGCTTATAGTAGTTAGG | 532
CCTAACTACTATAATCCAGTCACATAGCTTCGTACA | 589
GAAATTATATACAAGAACGTGGTAGAGACTGGATAG | 631
CCTAACTACTATAGATACATCAGATAGCTTCGTACA | 529
CCTAACTACTATAGTCACATTTTATAGCTTCGTACA | 634
TGTACGAAGCTATATGATGGCGTTATAGTAGTTAGG | 510
GAATATACTTTATGTCTCGTGGGCATAAAAAGCTAG | 820
CCTAACTACTATAATAAGTCACGATAGCTTCGTACA | 927
GAACAAACCATAACACCCGTGATGACAACAACATAG | 822
GAAAGGTCCATCGGAAAGGTGACTCTTTTAAATTAG | 518
GAAATCAATACAAGGTGACTAAGATTGTTATGTTAG | 562
CTATACGAAAATGTGCATGTTATCTATATCCTTTTC | 533
TGTACGAAGCTATGAGGCATGATTATAGTAGTTAGG | 546
CTAATTTTTCAATATTTCACCTGTTTATCGGTGTTC | 497
CTAACTTTGTTGTTATCGCTGATGGCGCTCCTCTTC | 498
GAAAGAAAAACCGATCACGTACATCGATGTACGTAG | 1040
GAATTCTATTCTTCCAACGTGCGAAGCGTTCCATAG | 544
GAAATCCCCTTGATGCACGTGCAGTTAAAAAAATAG | 11700
CTAAAGCAAGTACACGTGCGCAAGTTGTACCAGTTC | 6130
CTACCCAGCTGGGATGTGATCACGATGAGTGACTTC | 1080
GAACTTCCGTTCTGATATCACATGTATAATAGTTAG | 2610

Sample 3
Target: Histone acetyltransferase KAT6A, winged helix 2, GST fusion (KAT6A, Homo sapiens, UniProt Q92794, residues 85-181)
Method: protein binding microarray
Form: double-stranded DNA, one strand shown
Matrix: in vitro
Tested at: not given
Notes: 8-mer, flanks averaged, mean of 2 arrays, mostly near background
Baseline: not given
Direction: higher = stronger binding
Target sequence (chain): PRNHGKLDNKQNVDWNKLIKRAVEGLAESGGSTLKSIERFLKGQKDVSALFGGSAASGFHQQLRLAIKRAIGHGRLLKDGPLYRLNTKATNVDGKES
Oligonucleotide | E-score
AACAACAC | 0.141
CTCGCAGA | 0.0298
AGATATAC | -0.102
CTATGAAG | -0.0377
ACTCCCGG | 0.0381
AAGAGCTG | -0.0807
AAGCCTGC | -0.0412
AGACCATA | -0.0313
AGGCCCTC | -0.114
GGCGCGGA | 0.0881
CCATGCCA | -0.0258
CATTGTAC | -0.15
CGGAGCTC | -0.00732
AACCCCAT | -0.179
AAGATGGC | 0.0763
AGTTAGTC | -0.171
AGCTCCAG | 0.123
CGCGGAAA | 0.165
CAAGAGAC | -0.13
CCTCGCCG | 0.177

Sample 4
Target: CCND2, cyclin fold, Cln2 fusion (human)
Method: yeast growth competition, sequencing
Matrix: yeast
Notes: weak parent motif
Baseline: not given
Direction: higher = stronger binding
Starting sequence: MASTL docking peptide (human); PMIAKNLMCELDE
Change | normalised enrichment score
PMIAKNLMCECDE [L11C] | -0.204
PMIAKWLMCELDE [N6W] | 0.0603
PMIEKNLMCELDE [A4E] | 0.0792
PMIAKNLMCENDE [L11N] | 0.331
PMIACNLMCELDE [K5C] | 0.337
PMIAKNLMCELTE [D12T] | 0.19
PIIAKNLMCELDE [M2I] | 0.357
PMIAKMLMCELDE [N6M] | 0.224
PMIAKNLMCEKDE [L11K] | -0.132
PMIAKNLMCELIE [D12I] | -0.408
PMIMKNLMCELDE [A4M] | 0.00156
PMIAKNLMCELHE [D12H] | 0.111
PMIAKNLMCEIDE [L11I] | 0.0894
PMIAKYLMCELDE [N6Y] | -0.111
PDIAKNLMCELDE [M2D] | 0.109
PMDAKNLMCELDE [I3D] | -0.106
PMIAKTLMCELDE [N6T] | 0.248
PMIAKNLMCELWE [D12W] | -0.0403
PMIAKNYMCELDE [L7Y] | 0.653
PMIYKNLMCELDE [A4Y] | -0.0978
PMITKNLMCELDE [A4T] | 0.065
PMIAKNLLCELDE [M8L] | 0.216
PSIAKNLMCELDE [M2S] | 0.387
PMIAQNLMCELDE [K5Q] | -0.169
PMIAKNLMCRLDE [E10R] | -0.0253

Sample 5
Target: Interferon regulatory factor 7, full length, phosphomimetic (IRF7, Homo sapiens, UniProt Q92985, residues 1-503, S471D/S472D/S475D/S476D/S477D/S483D/S484D/S487D)
Method: protein-binding microarray
Form: double-stranded DNA, one strand shown
Matrix: in vitro
Tested at: 2200 nM top
Notes: 60-bp whole probe
With: salmon DNA 0.4 mg/ml
Baseline: random background probes
Direction: higher = stronger binding
Shared flanks, not repeated: GCCTAGCAC … GTCTTGATTCGCTTGACGCTGCTG
Construct (chain): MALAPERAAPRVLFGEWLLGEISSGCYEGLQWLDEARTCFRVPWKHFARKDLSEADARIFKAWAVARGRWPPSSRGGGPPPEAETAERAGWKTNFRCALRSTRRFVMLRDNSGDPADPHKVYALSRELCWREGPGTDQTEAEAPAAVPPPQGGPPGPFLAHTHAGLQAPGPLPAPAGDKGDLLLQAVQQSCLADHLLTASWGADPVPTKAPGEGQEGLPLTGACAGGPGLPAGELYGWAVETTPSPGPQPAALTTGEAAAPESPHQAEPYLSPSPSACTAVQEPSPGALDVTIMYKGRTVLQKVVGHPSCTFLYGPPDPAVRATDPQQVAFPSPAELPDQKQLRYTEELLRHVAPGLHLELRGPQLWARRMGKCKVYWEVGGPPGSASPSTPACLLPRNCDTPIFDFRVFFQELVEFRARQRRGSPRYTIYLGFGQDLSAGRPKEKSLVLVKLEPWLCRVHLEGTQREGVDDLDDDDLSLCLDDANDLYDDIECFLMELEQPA
Oligonucleotide | fitted relative affinity
TTAGATTTCAGTTCCGAGTAGTGCTAG | 1.65 z-score
TCACCTTTCTCCATGGGACTGTGCTAG | 1.93 z-score
TCACTTTTCGCTTTCTTACTGTGCTAG | 8.56 z-score
TTAGCTTTCGGGTTTCGGTTAGTGCTA | 11.2 z-score
TTAGGACTGGACACTGCGTTAGTGCTA | -0.434 z-score
GACGGACTGCTTCTCCTGACGTGCTAG | 0.672 z-score
GACGGACTGGGACTGGCGACGTGCTAG | -0.894 z-score
TCACTTTGCTCATTTTTCACTGTGCTA | 2.84 z-score
TTGGGTATCGGGTATCGGTTAGTGCTA | 0.648 z-score
AACGATATCGGGTATCGAGACGTGCTA | 0.209 z-score
GGGTGTGTGAGTGTGTGTGCGTGCTAG | -0.0667 z-score
GACGATTTCGGGACTGGAGAAGTGCTA | 1.14 z-score
AGAGGCGGGAGGGGGCGGGGGTGCTAG | 0.952 z-score
TGCACTCTCTACATGTGTTTGTGCTAG | 1.27 z-score
TCAACTCTAATCTCACTCACTGTGCTA | 0.383 z-score
TAAGATCTCAGTATCGATTAGTGCTAG | 0.231 z-score
TCAGGTCTGGATGTGCCACTGTGCTAG | 0.0389 z-score
TTAGGTTTCATTATCCTTTAGTGCTAG | 2.88 z-score
GACGATTTCAGTTTCGAGGCGTGCTAG | 4.8 z-score

A few entries again (sample 3):
Oligonucleotide | E-score
AAGCCTGC | -0.0412
AGACCATA | -0.0313
AGGCCCTC | -0.114
GGCGCGGA | 0.0881
CCATGCCA | -0.0258
CATTGTAC | -0.15
CGGAGCTC | -0.00732
AACCCCAT | -0.179
